Results gathered from unrelated publications.
Protocols differ between the studies behind these lines. Several values in a cell are separate wells, animals, samples, runs or records. Numbers after ± are the reported error.

Structure (SMILES) | system | setting | scale | measurement | value
CN1C(=O)c2ccccc2[S@+]([O-])c2ccc(C(=O)NCCc3cccs3)cc21 | C57BL/6 mouse, male, brain | intraperitoneal, 30 mg/kg, single dose, 4 h, quantification limit 1 ng/mL | – | brain concentration | not detected
Cc1coc([C@H]2C[C@H]3[C@@H](CF)SC(N)=N[C@@]3(c3ccc(F)cc3F)CO2)n1 | male 129/SVE mouse, brain | subcutaneous, 80 mg/kg, 7 h | – | brain concentration | 0.036 µM
COc1cc2c(Nc3ccc(Cl)c(Cl)c3F)ncnc2cc1OC[C@@H]1C[C@@H]2CN(C)C[C@@H]2C1 | FVB Mdr1a/b(-/-) Bcrp1(-/-) mouse | oral, 70 mg/kg, 2 h | – | brain concentration | 10000 ng/g
CC(C)[C@@H](CS(=O)(=O)C(C)C)N1C(=O)[C@@](C)(CC(=O)O)C[C@H](c2cccc(Cl)c2)[C@H]1c1ccc(Cl)cc1 | FVB mouse, Abcb1a/b and Abcg2 knockout, brain | intravenous, 20 mg/kg, unit not given | relative to: knockout Kp over wild-type Kp | brain distribution advantage | 40.5
CCOC(=O)c1c(NC(=O)CNC(C)C)sc2c1CCCCC2 | mouse, brain | intraperitoneal, 100 mg/kg | – | brain AUC(0-3 h) | 21200 ng·h/g
O=S(=O)(c1ccc(-c2ccc3nccc(Nc4ccncn4)c3c2)cc1)N1CCOCC1 | female BALB/c mouse, brain | intraperitoneal, 10 mg/kg, 0.25 h | – | brain concentration | 185 ng/g and 150 ng/g
Cn1ncnc1[C@H]1c2n[nH]c(=O)c3cc(F)cc(c23)N[C@@H]1c1ccc(F)cc1 | FVB mouse Mdr1a/b-/-, brain | oral, 0.15 mg/kg, 2 h, single dose | – | brain concentration | 17.2 ± 2.1 ng/g
Cc1cc([C@H]2C[C@H]3[C@@H](C)SC(N)=N[C@@]3(c3ccc(F)cc3F)CO2)on1 | male 129/SVE mouse, brain | subcutaneous, 50 mg/kg, 3 h | – | brain concentration | 6.62 µM

Excerpt of the above:
Structure (SMILES) | system | setting | scale | measurement | value
CN1C(=O)c2ccccc2[S@+]([O-])c2ccc(C(=O)NCCc3cccs3)cc21 | C57BL/6 mouse, male, brain | intraperitoneal, 30 mg/kg, single dose, 4 h, quantification limit 1 ng/mL | – | brain concentration | not detected
